Published values gathered from unrelated publications.
Protocols differ between the studies behind these lines. Numbers after ± are the reported error.
B1: Cdh1 157-884 (Mus musculus, UniProt P09803); sequence looked up; chain DWVIPPISCPENEKGEFPKNLVQIKSNRDKETKVFYSITGQGADKPPVGVFIIERETGWLKVTQPLDREAIAKYILYSHAVSSNGEAVEDPMEIVITVTDQNDNRPEFTQEVFEGSVAEGAVPGTSVMKVSATDADDDVNTYNAAIAYTIVSQDPELPHKNMFTVNRDTGVISVLTSGLDRESYPTYTLVVQAADLQGEGLSTTAKAVITVKDINDNAPVFNPSTYQGQVPENEVNARIATLKVTDDDAPNTPAWKAVYTVVNDPDQQFVVVTDPTTNDGILKTAKGLDFEAKQQYILHVRVENEEPFEGSLVPSTATVTVDVVDVNEAPIFMPAERRVEVPEDFGVGQEITSYTAREPDTFMDQKITYRIWRDTANWLEINPETGAIFTRAEMDREDAEHVKNSTYVALIIATDDGSPIATGTGTLLLVLLDVNDNAPIPEPRNMQFCQRNPQPHIITILDPDLPPNTSPFTAELTHGASVNWTIEYNDAAQESLILQPRKDLEIGEYKIHLKLADNQNKDQVTTLDVHVCDCEGTVNNCMKAGIVAAGLQVPAILGILGGILALLILILLLLLFLRRRTVVKEPLLPPDDDTRDNVYYYDEEGGGEEDQDFDLSQLHRGLDARPEVTRNDVAPTLMSVPQYRPRPANPDEIGNFIDENLKAADSDPTAPPYDSLLVFDYEGSGSEAASLSSLNSSESDQDQDYDYLNEWGNRFKKLADMYGGGEDD
B2: UGT1A9 (Homo sapiens, UniProt O60656); chain GKLLVVPMDGSHWFTMRSVVEKLILRGHEVVVVMPEVSWQLGRSLNCTVKTYSTSYTLEDLDREFKAFAHAQWKAQVRSIYSLLMGSYNDIFDLFFSNCRSLFKDKKLVEYLKESSFDAVFLDPFDNCGLIVAKYFSLPSVVFARGILCHYLEEGAQCPAPLSYVPRILLGFSDAMTFKERVRNHIMHLEEHLLCHRFFKNALEIASEILQTPVTEYDLYSHTSIWLLRTDFVLDYPKPVMPNMIFIGGINCHQGKPLPMEFEAYINASGEHGIVVFSLGSMVSEIPEKKAMAIADALGKIPQTVLWRYTGTRPSNLANNTILVKWLPQNDLLGHPMTRAFITHAGSHGVYESICNGVPMVMMPLFGDQMDNAKRMETKGAGVTLNVLEMTSEDLENALKAVINDKSYKENIMRLSSLHKDRPVEPLDLAVFWVEFVMRHKGAPHLRPAAHDLTWYQYHSLDVIGFLLAVVLTVAFITFKCCAYGYRKCLGKKGRVKKAHKSKTH
Chain of UniProt Q9SCZ4 (whole entry, looked up): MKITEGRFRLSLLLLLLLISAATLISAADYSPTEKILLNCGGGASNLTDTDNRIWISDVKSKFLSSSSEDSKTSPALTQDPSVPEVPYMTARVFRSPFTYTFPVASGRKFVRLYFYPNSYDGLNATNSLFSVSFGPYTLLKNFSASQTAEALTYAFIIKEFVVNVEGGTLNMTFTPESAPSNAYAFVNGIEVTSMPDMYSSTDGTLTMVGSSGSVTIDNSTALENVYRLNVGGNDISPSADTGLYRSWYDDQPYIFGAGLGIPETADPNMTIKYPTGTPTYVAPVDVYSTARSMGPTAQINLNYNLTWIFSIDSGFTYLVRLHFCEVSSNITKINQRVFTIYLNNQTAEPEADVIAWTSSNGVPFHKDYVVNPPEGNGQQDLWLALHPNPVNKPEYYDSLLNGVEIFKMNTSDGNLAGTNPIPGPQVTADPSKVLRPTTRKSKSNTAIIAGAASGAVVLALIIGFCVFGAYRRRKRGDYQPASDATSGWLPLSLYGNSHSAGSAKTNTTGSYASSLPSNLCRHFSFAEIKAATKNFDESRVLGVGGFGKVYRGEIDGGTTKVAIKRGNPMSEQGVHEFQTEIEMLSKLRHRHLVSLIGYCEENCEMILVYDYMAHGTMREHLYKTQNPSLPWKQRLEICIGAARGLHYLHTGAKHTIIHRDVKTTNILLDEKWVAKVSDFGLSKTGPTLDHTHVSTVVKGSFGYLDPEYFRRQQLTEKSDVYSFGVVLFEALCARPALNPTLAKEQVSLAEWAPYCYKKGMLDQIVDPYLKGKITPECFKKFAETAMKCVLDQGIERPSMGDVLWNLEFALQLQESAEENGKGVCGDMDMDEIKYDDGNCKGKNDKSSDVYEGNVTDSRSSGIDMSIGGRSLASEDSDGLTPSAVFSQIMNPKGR
Chain of UniProt Q61851 (whole entry, looked up): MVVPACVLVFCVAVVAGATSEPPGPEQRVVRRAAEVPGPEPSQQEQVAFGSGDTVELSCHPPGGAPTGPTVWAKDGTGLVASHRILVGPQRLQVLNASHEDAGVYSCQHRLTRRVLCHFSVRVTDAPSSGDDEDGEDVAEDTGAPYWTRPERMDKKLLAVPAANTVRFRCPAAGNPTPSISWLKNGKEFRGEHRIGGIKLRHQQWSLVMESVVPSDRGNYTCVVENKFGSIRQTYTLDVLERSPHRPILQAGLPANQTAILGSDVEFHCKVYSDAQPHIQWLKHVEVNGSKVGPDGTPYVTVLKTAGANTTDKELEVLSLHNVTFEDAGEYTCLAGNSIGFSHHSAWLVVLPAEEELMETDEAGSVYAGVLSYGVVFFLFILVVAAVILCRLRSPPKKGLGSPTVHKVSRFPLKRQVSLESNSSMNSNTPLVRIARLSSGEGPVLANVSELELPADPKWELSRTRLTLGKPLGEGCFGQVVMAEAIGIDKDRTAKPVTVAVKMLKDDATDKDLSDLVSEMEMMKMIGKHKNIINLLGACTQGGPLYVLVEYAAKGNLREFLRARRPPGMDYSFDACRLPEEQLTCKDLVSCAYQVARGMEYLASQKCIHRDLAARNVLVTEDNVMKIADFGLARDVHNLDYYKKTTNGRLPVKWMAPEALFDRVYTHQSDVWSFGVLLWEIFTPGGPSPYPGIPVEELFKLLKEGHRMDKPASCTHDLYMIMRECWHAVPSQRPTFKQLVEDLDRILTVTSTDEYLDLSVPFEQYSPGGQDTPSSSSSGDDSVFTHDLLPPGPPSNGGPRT
Chain of UniProt P09038 (whole entry, looked up): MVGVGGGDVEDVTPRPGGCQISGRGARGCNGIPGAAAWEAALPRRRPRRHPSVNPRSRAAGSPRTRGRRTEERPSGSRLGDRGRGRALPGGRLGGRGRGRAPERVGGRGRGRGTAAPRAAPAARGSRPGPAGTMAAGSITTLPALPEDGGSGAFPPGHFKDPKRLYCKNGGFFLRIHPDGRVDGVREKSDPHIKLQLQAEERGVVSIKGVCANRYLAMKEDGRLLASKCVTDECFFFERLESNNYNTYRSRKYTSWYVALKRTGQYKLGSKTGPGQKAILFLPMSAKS
Chain of UniProt P45983 (whole entry, looked up): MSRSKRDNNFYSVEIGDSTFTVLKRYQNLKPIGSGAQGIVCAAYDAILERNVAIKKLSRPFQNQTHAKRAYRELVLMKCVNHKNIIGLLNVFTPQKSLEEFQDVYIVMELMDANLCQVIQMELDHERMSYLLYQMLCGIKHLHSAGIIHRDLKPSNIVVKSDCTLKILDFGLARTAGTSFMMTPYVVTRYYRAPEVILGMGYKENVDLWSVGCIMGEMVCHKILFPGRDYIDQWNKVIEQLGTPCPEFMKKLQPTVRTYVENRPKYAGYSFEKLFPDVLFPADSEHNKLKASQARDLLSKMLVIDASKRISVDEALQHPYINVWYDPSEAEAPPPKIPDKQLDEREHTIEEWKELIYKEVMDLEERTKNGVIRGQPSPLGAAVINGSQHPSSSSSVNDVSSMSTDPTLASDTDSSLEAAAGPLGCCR
Chain of UniProt Q9UPY3 (whole entry, looked up): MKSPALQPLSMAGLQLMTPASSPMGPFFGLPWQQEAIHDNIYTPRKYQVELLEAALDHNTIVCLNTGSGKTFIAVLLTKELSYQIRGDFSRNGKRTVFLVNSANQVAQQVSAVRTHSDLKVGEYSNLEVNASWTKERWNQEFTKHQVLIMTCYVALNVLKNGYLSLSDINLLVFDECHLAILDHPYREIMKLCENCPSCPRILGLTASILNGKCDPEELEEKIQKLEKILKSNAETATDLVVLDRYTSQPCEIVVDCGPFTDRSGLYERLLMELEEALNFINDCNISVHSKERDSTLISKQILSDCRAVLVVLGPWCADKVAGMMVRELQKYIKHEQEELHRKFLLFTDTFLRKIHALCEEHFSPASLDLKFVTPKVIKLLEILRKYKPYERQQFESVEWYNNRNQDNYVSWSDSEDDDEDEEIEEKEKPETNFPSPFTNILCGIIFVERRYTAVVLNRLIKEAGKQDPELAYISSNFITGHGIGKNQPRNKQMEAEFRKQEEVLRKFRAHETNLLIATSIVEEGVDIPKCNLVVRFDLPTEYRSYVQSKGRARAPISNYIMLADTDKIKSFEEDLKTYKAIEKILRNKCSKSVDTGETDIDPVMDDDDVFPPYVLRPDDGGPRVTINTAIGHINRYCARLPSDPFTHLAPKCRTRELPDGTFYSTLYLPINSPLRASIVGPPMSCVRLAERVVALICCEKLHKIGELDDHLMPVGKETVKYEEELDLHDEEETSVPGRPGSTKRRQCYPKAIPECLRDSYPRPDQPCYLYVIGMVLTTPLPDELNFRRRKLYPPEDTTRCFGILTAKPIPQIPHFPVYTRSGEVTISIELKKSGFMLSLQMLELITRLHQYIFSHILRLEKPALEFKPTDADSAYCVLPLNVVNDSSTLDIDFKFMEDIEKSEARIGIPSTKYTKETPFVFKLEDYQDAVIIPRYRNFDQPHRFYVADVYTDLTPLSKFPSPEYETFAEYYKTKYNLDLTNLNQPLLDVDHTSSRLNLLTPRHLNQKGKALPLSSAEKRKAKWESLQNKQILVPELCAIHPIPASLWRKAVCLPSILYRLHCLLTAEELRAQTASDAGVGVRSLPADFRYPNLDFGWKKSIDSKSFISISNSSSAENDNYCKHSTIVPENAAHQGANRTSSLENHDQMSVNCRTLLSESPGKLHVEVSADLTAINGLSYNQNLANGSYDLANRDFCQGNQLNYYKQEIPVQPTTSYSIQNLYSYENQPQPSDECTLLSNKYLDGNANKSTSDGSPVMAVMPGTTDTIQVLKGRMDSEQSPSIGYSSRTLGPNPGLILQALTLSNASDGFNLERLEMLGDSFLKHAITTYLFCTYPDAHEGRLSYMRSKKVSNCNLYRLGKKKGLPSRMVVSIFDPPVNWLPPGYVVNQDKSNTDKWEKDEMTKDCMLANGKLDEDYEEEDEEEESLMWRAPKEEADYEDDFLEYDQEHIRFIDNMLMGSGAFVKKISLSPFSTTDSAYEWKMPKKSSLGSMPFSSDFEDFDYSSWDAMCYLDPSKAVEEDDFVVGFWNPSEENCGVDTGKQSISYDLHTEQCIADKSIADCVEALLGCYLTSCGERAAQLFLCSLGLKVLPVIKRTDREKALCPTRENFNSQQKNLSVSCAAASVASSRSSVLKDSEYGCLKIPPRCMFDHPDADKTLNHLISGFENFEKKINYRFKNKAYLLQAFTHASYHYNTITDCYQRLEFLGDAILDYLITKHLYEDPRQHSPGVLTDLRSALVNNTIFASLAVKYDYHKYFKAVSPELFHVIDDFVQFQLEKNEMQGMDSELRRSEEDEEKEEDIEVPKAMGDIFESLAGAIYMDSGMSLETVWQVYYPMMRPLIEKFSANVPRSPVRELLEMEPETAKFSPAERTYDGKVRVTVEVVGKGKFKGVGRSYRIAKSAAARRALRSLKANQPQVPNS
Chain of UniProt Q91ZD4 (whole entry, looked up): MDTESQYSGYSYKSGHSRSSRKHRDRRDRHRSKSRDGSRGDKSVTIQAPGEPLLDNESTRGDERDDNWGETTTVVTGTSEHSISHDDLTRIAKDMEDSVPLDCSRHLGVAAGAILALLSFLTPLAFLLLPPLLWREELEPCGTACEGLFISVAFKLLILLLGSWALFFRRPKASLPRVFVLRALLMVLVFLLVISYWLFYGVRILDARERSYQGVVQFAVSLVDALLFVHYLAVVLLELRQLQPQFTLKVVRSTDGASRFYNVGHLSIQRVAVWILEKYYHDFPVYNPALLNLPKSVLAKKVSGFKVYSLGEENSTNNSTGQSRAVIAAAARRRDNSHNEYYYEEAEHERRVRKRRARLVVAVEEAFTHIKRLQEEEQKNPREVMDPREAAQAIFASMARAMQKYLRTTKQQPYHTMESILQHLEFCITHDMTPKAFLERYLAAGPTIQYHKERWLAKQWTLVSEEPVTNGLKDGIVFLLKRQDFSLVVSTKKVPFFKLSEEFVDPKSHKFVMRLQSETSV

With `ARTKRTARKS (Histone H3.1 2-11 Q5R (Homo sapiens, UniProt P68431); sequence looked up)` the Ki was 0.62 µM (KDM5A 287-347 (Homo sapiens, UniProt P29375); competition with labeled peptide, fluorescence polarisation; peptide; with: H3 peptide).
With `ADAR (Homo sapiens, UniProt P55265)` the cleavage was 4 fold (DICER1 (Homo sapiens, UniProt Q9UPY3); pre-siRNA cleavage; single turnover; baseline: Dicer alone, higher = more cleavage).
`B1 (Cdh1 157-884)` has an E-cadherin association of 2.17 ± 0.22 a.u. (Vangl2 (Mus musculus, UniProt Q91ZD4); co-IP; HEK293T; β-catenin shRNA; baseline: control, higher = more association).
The Ki of `NGYENPTFKFFE (APP peptide 755-766 Y762F (Homo sapiens, UniProt P05067); sequence looked up)` is reported as 1 µM (APBA2 364-570 (Homo sapiens, UniProt Q99767); fluorescence polarisation; peptide; with: TAMRA-labelled APP peptide 50 nM).
`ferredoxin 3 (Magnetococcus marinus)`: “CO2 reduction activity” 8.1 min⁻¹ (2-oxoglutarate:ferredoxin oxidoreductase αβ heterodimer (Magnetococcus marinus); 2-oxoglutarate formation; electron donor, with: ferredoxin).
`ATTKYISYQSLKRNSVPCSRRGASYYNCQNGAQANPYSRGCSKIARCRS (RALF1 mature (Arabidopsis thaliana, UniProt Q9SRY3); sequence looked up)` has a phosphopeptide abundance of 4.3 fold (FER (Arabidopsis thaliana, UniProt Q9SCZ4); AHA2 Ser899 phosphorylation, quantitative phosphoproteomics; peptide, Arabidopsis seedlings, plasma membranes; 1 µM, 5 min; baseline: untreated, higher = more phosphorylation).
For `FGF2 (Homo sapiens, UniProt P09038)`, the cell proliferation was 74% (FGFR3 isoform IIIc (unknown, UniProt Q61851); cell proliferation, MTT; BaF3-FGFR3c; 20 nM, 48 h, with: chondroitin sulfate B 4.9 µg/mL; baseline: FGF 1 with heparin, higher = more proliferation).
The phagocytosis of `Itgam/Itgb2 Mac-1 (Mus musculus)` is reported as 5 times (LL-37 (Homo sapiens); phagocytosis of latex beads; mouse peritoneal macrophages; baseline: control beads, higher = more phagocytosis).
`YAKQVRKKEHKLKITP (AFAP1L2 D-site peptide (Homo sapiens))` has an IC50 of over 100 µM (MAPK8, pT183, pY185 (Homo sapiens, UniProt P45983); kinase activity, inhibitor, competitive kinase inhibition assay; peptide; with: ATP 1 mM).
For `B2 (UGT1A9)`, the Km was 0.19 µM (COc1ccc(-c2oc3cc(OC)ccc3c(=O)c2O)cc1; steady-state kinetics; pH 7.4, 37 °C).
For `FGF14 fragment, N-terminal adamantanecarbonyl, Glu tert-butyl ester, C-terminal ethyl ester (Homo sapiens)`, the koff was 0.0122 s⁻¹ (SCN8A 1767-1912 (Homo sapiens, UniProt Q9UQD0-1); SPR).
For `GOLGA2 GST fusion`, the relative affinity was 9 fold (KPNA2 ΔIBB, NLS-binding domain del IBB; ITC; baseline: TPX2 NLS, higher = tighter binding).
For `PICK1 K251E/K252E/K257E/K266E/K268E (Mus musculus)`, the relative co-precipitation was 0.67 fold (Wwc1 (Mus musculus, UniProt Q5SXA9); co-IP; HEK293T; baseline: wild-type PICK1, higher = more binding).

Repeated from above:
For `PICK1 K251E/K252E/K257E/K266E/K268E (Mus musculus)`, the relative co-precipitation was 0.67 fold (Wwc1 (Mus musculus, UniProt Q5SXA9); co-IP; HEK293T; baseline: wild-type PICK1, higher = more binding).
